# Results gathered from unrelated publications.
# Each numbered part is a random draw from the data of one study; scales do not carry over between parts. Positions count from the first letter of the parent shown.

# Block 1
# Target: CCND3, cyclin fold, Cln2 fusion (human)
# Technique: yeast growth competition, sequencing
# Sample: yeast
# Notes: weak parent motif
# Reference: not given
# Reading: higher = stronger binding
# Starting sequence: SLBP docking peptide (human); ARYKRKLLINDFG; partner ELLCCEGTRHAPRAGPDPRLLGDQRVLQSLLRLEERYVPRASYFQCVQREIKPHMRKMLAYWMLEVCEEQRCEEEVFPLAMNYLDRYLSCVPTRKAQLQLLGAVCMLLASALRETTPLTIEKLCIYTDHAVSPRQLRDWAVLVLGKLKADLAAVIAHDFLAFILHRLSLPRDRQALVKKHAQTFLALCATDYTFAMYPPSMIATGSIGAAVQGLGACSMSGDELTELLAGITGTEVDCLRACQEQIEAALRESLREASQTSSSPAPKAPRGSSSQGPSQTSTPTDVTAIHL
Substitution,normalised enrichment score
ARYKRKLQINDFG [L8Q],0.121
ARYKRKLLINHFG [D11H],0.0718
ARYKRKLLIWDFG [N10W],0.157
ARYKRKPLINDFG [L7P],0.122
ARYKRKLLRNDFG [I9R],0.137
AVYKRKLLINDFG [R2V],0.143
ARYKRKLLIMDFG [N10M],0.139
ARYKRNLLINDFG [K6N],0.232
LRYKRKLLINDFG [A1L],0.164
ARYKRKLLINEFG [D11E],0.2
ERYKRKLLINDFG [A1E],0.111
DRYKRKLLINDFG [A1D],0.171
ARYKRKLLINDKG [F12K],0.0662
ARYKRKLLNNDFG [I9N],0.172
ARYKRKLLINDFH [G13H],0.112
ARYKRKLLWNDFG [I9W],0.133
ARYKRKLLMNDFG [I9M],0.113
ARYKRKLLINGFG [D11G],0.0752
ARYKLKLLINDFG [R5L],0.224
ARYPRKLLINDFG [K4P],0.108
AAYKRKLLINDFG [R2A],0.144
ARYKKKLLINDFG [R5K],0.322
ARYQRKLLINDFG [K4Q],0.0286
ARYKRKLLINDFA [G13A],0.133
ARYKRKLLGNDFG [I9G],0.0273

# Block 2
# Target: RING finger protein unkempt homolog, zinc fingers 1-6, SBP tag (UNK, Homo sapiens, UniProt Q9C0B0, residues 30-357)
# Sequence of UniProt Q9C0B0 (30-357, looked up): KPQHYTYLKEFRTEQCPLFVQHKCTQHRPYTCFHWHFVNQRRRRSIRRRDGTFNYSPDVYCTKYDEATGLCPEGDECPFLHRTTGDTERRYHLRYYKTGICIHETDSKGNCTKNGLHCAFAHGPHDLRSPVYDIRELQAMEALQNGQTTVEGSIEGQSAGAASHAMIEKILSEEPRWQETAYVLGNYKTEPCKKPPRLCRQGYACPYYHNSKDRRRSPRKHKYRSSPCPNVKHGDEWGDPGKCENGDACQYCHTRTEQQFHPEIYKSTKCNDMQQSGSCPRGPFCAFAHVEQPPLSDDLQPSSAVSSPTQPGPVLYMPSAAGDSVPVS
# Technique: RNA Bind-n-Seq
# Molecule type: RNA
# Sample: in vitro
# Tested at: 100 nM
# Notes: RNA with constant flanks, vertebrate orthologous sites, ends assumed
# Reference: input RNA pool
# Reading: higher = stronger binding
# All sequences stand within: GGGAGUUCUACAGUCCGACGAUC … CAACAGAGGAUUGAGCAUCA
Oligonucleotide,bound/input enrichment [ratio]
CAUGCACAUGCCGCUGUCACCAAGAGCAAACAUGGUCUCCAAACUCUCCAACUAGCCUUUUUAGUAUUCUCCCUCUCUUUCCCUUCUGUUGUUCCUCCAAUGCUUUAAAUGAUUAGAAGU,1.99
UUCAACAAAAAUGUUUCCACUGGGUUUUGUGUCUAUAAGAAAAAAUCUAUCCCAAACACAUAGAGCUUUUUAAUAGCACUAACCAAUGCCUUUUUAGAUGUAUUUUUGAUGUAUAUAUCU,0.308
UAUUGUAUGUAGAGAAAAAUUUUCAUUUUGACCCAUUGUGAAAUUCCCUAGCAGUUUAUUUAGAAUCUUAAUUUUUCUAAUUGAAGCUCACUGUAUUAGUCAUUUUUAGCCCAUAAUUAA,4.09
UCUGUAUAGCAAGUAGAGUGGACUCCCCUUUCUACUUCUCGCAGGAACAAAAAGCCCAGAUAGAUUCUGGACACAUCUGAUUAUACUGUUCUGUUUUUGUUUUCUAUUAUUUUUCCAUUU,0.717
GGUUUCUAGUGCUUAUGACAGUUCUGAAAUCCUAUUUAUUUGUAGAUGUAAGUUUGUAUAUAGUAAACCUCACGUUGCUGAAGUUUUCAUCUUGGGGGACAAGUUUGAAUUUUGUUUUGA,0.732
GUGAGGGUCUACUGACCACUCGCUGUUAUGUCUGGUAUCUGUAAACGCUCUUUUUGUUCUUAGUCUUUUUCUUGUAUAAUUGAUACUCUUUAAAAUUGUUAAUGUAUAACAGGGCUUAUG,2.15
AAGAUGGUGGUUGUACAUACUUUUAUUUAGAAAAUAUAAACUUUCAUUUUGUUUUGAAGCUAGAUAUUAAACUGGAAUAGCUAUUAUACCCGAGUGGGGGCACUUGUGCCCUUCCCUUGA,0.65
GUAUGUAGAGAAAAUUUUUCAUUGACCCCCCCCAAUUGUGAAAUUCCCCAGCAAUUUAUUUAGAAUCUUAAUUUUUCUAAUUCAAACUCAUUGUAUUAGUUAUUUUAGCCCAUAAUUAAA,1.77
UUGGGACCAGCUCUCCAAAUAAGAAUAGUAGUAAAAAAAAUAAGCAAAAUGAUAUUUGUAUAGAAAAAACAGAAGUUAAAUCAUGUAAAGUAAAUGCUGCCAACAUAGCAAGCCCUAAAG,3.24
AGUCCCCUGGGCGGACGGAUUUUUUUUUUUUAGUGUCUUGAAAUUUAAACUCUGUGCUUGUAGGAGACUGUAACCUUUUUGUCUUUUUUUUUUUAAACAAAACCUCCACCUCCAGUGGCU,1.2
GCACUGCUUGUGCAAAUUUCACAACACUGAAUGCAAAGUAGAAAUUUUCAUAGUCACAAUAAGGUAGCUGUAGGGUAAUAUUGCCAUGGUUUUACUCAUGUGCAGGUUUUGAAAAUGUAU,0.849

# Block 3
# Target: RNA binding protein fox-1 homolog 2, RRM domain, GST-SBP tag (RBFOX2, Homo sapiens, UniProt O43251-10, residues 100-194)
# Technique: RNA Bind-n-Seq
# Molecule type: RNA
# Sample: in vitro
# Tested at: 365 nM
# Notes: natural RNA segment, single round, ends assumed
# Reference: no-protein control
# Reading: higher = stronger binding
# All sequences stand within: GGGAGUUCUACAGUCCGACGAUC … UGGAAUUCUCGGGUGCCAA
# Construct (chain): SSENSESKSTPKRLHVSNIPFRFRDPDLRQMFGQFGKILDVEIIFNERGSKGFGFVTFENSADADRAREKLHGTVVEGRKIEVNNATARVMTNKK
Oligonucleotide,RBNS enrichment (R)
UUCGGAAGGUGUUUCUUGUACCUGAGGGAUCCUGCCCUGAAUCUCCAUAGUCUCCACUGUGAACUGAGGAGGGGAGGGGUGUGCUGGGGAAUAAAUCUUGUAUGAGAACA,0.623
UGUGUGUGUGUGUACUCUGUGUGUGUAUGAGAGAGAGAAAUGCUAACCUUGUAGCAUGUGAAGAAUGUCUGUACCUUGAUACGAUAGUUACAUAAUCAGUAUAUUUGGUU,18.2
UAUUGGCCAAAGCAUUCUUACAGAACAGUGUCUAAAAGGUCAUUCCCAACCCUUUCUGAUAUUGGCUAAGACCUCAGUAUCUCCCAGUAGCACUUCUUCUGGAUUUGAAU,0.475
GUAGGAACAGCAUUUCUUACAACCGCCCCAGGACCUGAUUUGGCAAGACUGACUAGCUCUCUUUAGCCCUCUGGUGAUUCCUUCACUAUCAUGUCAACCUGGCUUAUCAU,0.294
CUUUAAAUUAUAUUUAACAUUUUCAUGCUUCUUAAUUUAACUUCACAUGUUGGGAAGUAGAUUCAGAAAGAUAGGAGAAAUACCCAGACUCUACCACUUCCGUGAGCUAC,0.397
ACAGGCCCCACGAAGCAGGGGCCACACCCUUGUCCUGGGCUGCCUUCUGGCUGGCUUCUCUCUGCCAGGGGCUCAGAAGGGGCACAAAAGGGGGUCAAGAAAAGAGCAAC,0.349
ACUCUGAAAGAGAUUGACAUUUUUCUCAACAGGAAUCCAUACUUAACAGUUCUGGCUUUCAUUAAAUUUUGCUCUUUGGUACCUGGGCCUUUUAUUUAACAUAUAUAUUU,0.893
UCCACAACUGCAUUCACUAUCACUUCUUGAGAUGGGACAGAUAUCCGUGCGUCAGUGGCUGGCAGAAGAAAGACGCCUUUGUCUGUGUAAUGCCUCUGUUAACUUUGCCA,0.455
AUACAUGAUCCCUCGGGUUUUGUUUACAAGGAACCUUGACUGACCAAAAGGCAUUAUAACUCUGACUCAAAUACAAGGUACAGAAGAUAAGCAUCUUUGAGGAAACUCCU,0.28
CACUUGUACCAGCUAAGAAUGCUGGAGACUCUGCCACCAUGCUCUGCGUGCCCCUGAACCUCUGUGCAGCCCGGAAGGCUGAUGUACAGGUGUACCUCAAUCCACAUUAC,0.347
UUUUACAUGAUUGCAUUCCUACAUUCUUGUAAACUUUAAGUAACUACCAUUGCAGUUUGUUCUUUUUUUAAAGUCUAAUUUGCAGCCAAGAACGAGUAAUUCUCACCCCA,0.41
UGCACCAGGUCUCAAGGUUCUCAUUUCUCAGGUGACGUGAUUCUAAGGCAGGAAUUUGAGAGUUCACAGAAGGAUCGUGUCUGCUGACUGUUUCAUUCACUGUGCACUUU,0.569

# Block 4
# Target: Histone acetyltransferase KAT6A, winged helix 2, GST fusion (KAT6A, Homo sapiens, UniProt Q92794, residues 85-181)
# Technique: protein binding microarray
# Molecule type: double-stranded DNA, one strand shown
# Sample: in vitro
# Tested at: not given
# Notes: 8-mer, flanks averaged, mean of 2 arrays, mostly near background
# Reference: not given
# Reading: higher = stronger binding
# Residues (chain): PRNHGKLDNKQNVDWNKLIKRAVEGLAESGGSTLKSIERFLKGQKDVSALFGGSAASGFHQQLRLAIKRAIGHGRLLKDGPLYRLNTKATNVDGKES
Oligonucleotide,E-score
GCGATGGA,0.156
CCTATCTC,-0.205
CTTTAAAG,-0.16
AAGCAGCC,0.0664
ACAATGTG,-0.208
ATTGTAAA,0.0398
ATAAACTA,0.144
CACCGTAA,-0.00103
GCATATCA,0.128
GCATATGA,-0.106
CTGTTCTA,0.108
AAGGTTGA,0.0181
AGCTTAGA,-0.0055
ACAATTCT,0.149
TCAGGAGA,0.132
CCCATCAA,0.0457
AAGTTCTG,-0.113
GAGGTAAC,0.0315
CCGAGGAC,0.0574
GACTGTTA,-0.154
ATAATGAA,0.165
AGCACCCC,-0.0818
CACTTGCA,-0.0314
CAATGCTC,-0.00284
ATTTTATA,0.195

# Block 5
# Target: Sal-like protein 4, full length isoform A (SALL4, Homo sapiens, UniProt Q9UJQ4, residues 1-1053)
# Sequence of UniProt Q9UJQ4 (whole entry, looked up): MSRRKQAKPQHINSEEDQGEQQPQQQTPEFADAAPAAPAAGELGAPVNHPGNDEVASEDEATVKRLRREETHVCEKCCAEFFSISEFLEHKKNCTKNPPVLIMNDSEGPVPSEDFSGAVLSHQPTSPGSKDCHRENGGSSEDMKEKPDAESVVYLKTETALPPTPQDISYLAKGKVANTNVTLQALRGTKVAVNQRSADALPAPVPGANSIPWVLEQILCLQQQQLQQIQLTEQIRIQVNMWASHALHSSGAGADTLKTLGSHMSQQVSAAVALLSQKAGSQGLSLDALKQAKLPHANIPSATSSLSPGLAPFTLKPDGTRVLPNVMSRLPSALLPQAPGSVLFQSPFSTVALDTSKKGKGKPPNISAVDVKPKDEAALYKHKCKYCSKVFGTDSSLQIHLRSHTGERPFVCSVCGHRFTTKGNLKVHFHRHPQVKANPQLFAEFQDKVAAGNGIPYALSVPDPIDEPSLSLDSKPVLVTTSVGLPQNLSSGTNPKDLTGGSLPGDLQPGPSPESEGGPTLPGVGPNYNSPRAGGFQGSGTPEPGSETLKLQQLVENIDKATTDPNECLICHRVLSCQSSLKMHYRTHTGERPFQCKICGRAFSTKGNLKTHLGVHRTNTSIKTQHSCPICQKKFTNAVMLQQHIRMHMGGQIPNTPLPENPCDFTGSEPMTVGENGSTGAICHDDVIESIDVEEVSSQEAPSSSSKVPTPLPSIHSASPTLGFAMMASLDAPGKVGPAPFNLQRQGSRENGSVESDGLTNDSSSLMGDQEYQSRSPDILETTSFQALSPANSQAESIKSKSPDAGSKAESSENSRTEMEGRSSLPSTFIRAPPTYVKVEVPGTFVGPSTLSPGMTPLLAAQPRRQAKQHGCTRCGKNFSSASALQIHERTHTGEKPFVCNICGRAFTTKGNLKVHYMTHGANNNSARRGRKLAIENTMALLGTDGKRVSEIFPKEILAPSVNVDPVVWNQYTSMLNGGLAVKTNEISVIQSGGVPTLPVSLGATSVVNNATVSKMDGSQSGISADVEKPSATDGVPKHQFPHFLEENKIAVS
# Technique: universal PBM
# Molecule type: double-stranded DNA, one strand shown
# Sample: in vitro
# Tested at: 600 nM
# Notes: 8-mer, flanks averaged, mean of replicates
# Reading: higher = stronger binding
Oligonucleotide,E-score
GCCGTTGA,-0.103
GGTCTAAA,0.0966
AAGGGGAA,-0.128
GAGCGCGA,-0.156
CCTTAGGC,-0.282
AATTATTC,0.402
GGAACTAC,-0.2
CACGTTCC,-0.177
ACGGAGAG,-0.137
GGTGCTTA,-0.121
CGAACTGA,-0.0788
TGAGGTAA,0.0112
ATATCACG,0.228
AGGAGCTG,-0.238
GCCTCACC,-0.287
CCTAGGGA,-0.0898
TAGGGGAA,-0.0936
ATGGTAGG,-0.104
AACTCTAG,0.0847
CTGATCCA,0.0516
GACGTTAC,-0.0043
CCTATCCC,-0.188
AAGATGGT,0.0591
CTACACTC,-0.107
GCCAACCC,-0.195
